Measurements of several laboratories.
Parts stem from different laboratories: compare values within a part only. Changes are numbered by the printed parent chain.

Set 1
Target: Myc proto-oncogene protein, bHLH-zipper, MAX partner unstated (MYC, Homo sapiens, UniProt P01106, residues 368-449)
Sequence of UniProt P01106 (368-449, looked up): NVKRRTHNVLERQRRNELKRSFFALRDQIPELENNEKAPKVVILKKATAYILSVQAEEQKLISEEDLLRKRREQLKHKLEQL
Method: protein-binding microarray
Molecule type: double-stranded DNA, one strand shown
Sample: in vitro
Concentration: not given
Setting: k-mer, scored over probes, only values ≥0.25
Reading: higher = stronger binding
The E-score of `GCAGCGCA` is reported as 0.304.
With `CGTGGTTC` the E-score was 0.381.
With `ACGGCCAC` the E-score was 0.264.
The E-score of `CCACCTGC` is reported as 0.387.
For `CACGTGAA`, the E-score was 0.457.
For `GCATGCGC`, the E-score was 0.42.
The E-score of `CACGTTCA` is reported as 0.274.
`GTGCGCTA` has an E-score of 0.251.

Set 2
Target: HLA class I histocompatibility antigen, C alpha chain, allele C*04:01 (Homo sapiens, UniProt P10321)
Read-out: peptide-MHC binding
Molecule type: peptide
Concentration: concentration not given
`RQSSGSSSSGF`: binding “inactive”.
`YMYRVWSPL` — result for binding: “inactive”.
`AYFLEAQEM` — result for binding: “inactive”.

Set 3
Target: Histone acetyltransferase KAT6A, winged helix 2, GST fusion (KAT6A, Homo sapiens, UniProt Q92794, residues 85-181)
Method: protein binding microarray
Molecule type: double-stranded DNA, one strand shown
Sample: in vitro
Concentration: not given
Setting: 8-mer, flanks averaged, mean of 2 arrays, mostly near background
Reference: not given
Reading: higher = stronger binding
Residues (chain): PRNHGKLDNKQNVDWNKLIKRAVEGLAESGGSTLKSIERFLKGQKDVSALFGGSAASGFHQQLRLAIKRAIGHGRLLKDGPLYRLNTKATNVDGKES
`AAACCCTT` has an E-score of -0.0339.
With `GTACCCAC` the E-score was 0.00889.
`AATCTTCC` has an E-score of -0.0157.
The E-score of `CGGTGATC` is reported as -0.13.
For `AACGGGCT`, the E-score was -0.224.
The E-score of `CCGGAGTA` is reported as 0.0735.
For `ACATTAGG`, the E-score was -0.243.
With `AATCCAGG` the E-score was 0.0865.

Set 4
Target: CCND1, cyclin fold, Cln2 fusion (human)
Method: yeast growth competition, sequencing
Sample: yeast
Setting: strong parent motif
Reference: not given
Reading: higher = stronger binding
Starting sequence: viral docking peptide; YKVKRRLVFGADD; partner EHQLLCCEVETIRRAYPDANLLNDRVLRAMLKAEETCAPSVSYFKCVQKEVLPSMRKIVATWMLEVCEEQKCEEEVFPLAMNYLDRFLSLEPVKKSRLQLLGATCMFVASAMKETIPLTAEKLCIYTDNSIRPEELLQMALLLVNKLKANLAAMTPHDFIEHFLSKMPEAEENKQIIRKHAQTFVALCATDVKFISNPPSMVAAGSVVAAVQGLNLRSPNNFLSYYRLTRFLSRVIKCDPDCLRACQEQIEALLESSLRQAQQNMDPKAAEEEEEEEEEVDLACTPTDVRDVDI
`V8S` — result for “normalised enrichment score”: 4.97.
`K2D` — result for “normalised enrichment score”: 1.78.
For `G10T`, “normalised enrichment score” read 1.93.
For `V8G`, “normalised enrichment score” read 0.106.
`R6Y` — result for “normalised enrichment score”: 0.522.
Under “normalised enrichment score”, `G10R` is recorded as 0.805.
Under “normalised enrichment score”, `V3K` is recorded as 0.122.
For `V3H`, “normalised enrichment score” read 0.175.
`K4D`: “normalised enrichment score” 0.173.
`G10W` — result for “normalised enrichment score”: 0.518.
`D12K`: “normalised enrichment score” 0.462.
`D12C` — result for “normalised enrichment score”: 0.973.
Under “normalised enrichment score”, `K2M` is recorded as 1.82.
`A11F` — result for “normalised enrichment score”: 1.48.
`D12I`: “normalised enrichment score” 0.861.
Under “normalised enrichment score”, `R6F` is recorded as 0.417.
`D12V` — result for “normalised enrichment score”: 1.16.
For `V8L`, “normalised enrichment score” read 1.13.

Other studies, line by line
Under interaction screen, `H1-4 (Homo sapiens, UniProt P10412)` is recorded as “cross-linked” (H1-5 (Homo sapiens, UniProt P16401); cross-linking MS; hits only).

Repeated from above (set 4):
`R6Y` — result for “normalised enrichment score”: 0.522.
`A11F` — result for “normalised enrichment score”: 1.48.
`K2D` — result for “normalised enrichment score”: 1.78.
